# Results collected from several papers.
# Each line is one published result; not all experiments were run side by side. ± gives the spread as reported. Square brackets hold non-standard residues; d marks the D form. Where no end group is shown, it is not given here. Ends that are not written are not given here. No end group written: not given here. [ ]: non-standard residue; d: D form. The star is where a group is joined. * marks the point of attachment.
# Rbpj: Rbpj 53-474 (Mus musculus, UniProt P31266)
# Chain of UniProt P31266 (whole entry, looked up): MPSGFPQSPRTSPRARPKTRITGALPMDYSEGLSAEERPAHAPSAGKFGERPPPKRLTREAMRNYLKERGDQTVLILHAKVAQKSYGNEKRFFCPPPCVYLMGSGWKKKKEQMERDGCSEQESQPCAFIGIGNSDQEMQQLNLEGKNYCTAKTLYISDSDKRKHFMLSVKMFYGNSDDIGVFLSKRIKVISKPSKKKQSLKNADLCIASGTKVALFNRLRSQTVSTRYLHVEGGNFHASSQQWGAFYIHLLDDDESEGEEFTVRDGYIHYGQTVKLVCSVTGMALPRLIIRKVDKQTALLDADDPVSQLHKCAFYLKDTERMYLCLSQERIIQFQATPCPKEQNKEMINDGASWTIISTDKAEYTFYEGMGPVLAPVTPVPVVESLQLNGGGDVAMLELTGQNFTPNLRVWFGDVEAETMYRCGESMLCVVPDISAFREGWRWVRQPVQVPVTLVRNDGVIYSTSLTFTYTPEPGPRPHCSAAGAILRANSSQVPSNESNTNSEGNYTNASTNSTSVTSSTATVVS
# PCNA: PCNA (Homo sapiens, UniProt P12004)
# Chain of UniProt P12004 (whole entry, looked up): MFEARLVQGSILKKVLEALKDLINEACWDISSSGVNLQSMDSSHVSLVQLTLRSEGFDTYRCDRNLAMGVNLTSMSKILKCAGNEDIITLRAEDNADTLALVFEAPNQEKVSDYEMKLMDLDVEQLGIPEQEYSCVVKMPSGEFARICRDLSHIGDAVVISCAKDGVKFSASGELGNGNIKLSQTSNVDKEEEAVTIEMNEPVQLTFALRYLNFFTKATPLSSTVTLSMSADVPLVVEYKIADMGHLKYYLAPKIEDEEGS
# B1: PDCD1 residues 25-157 C83S (Mus musculus, UniProt Q02242); chain MALEVPNGPWRSLTFYPAWLTVSEGANATFTCSLSNWSEDLMLNWNRLSPSNQTEKQAAFSNGLSQPVQDARFQIIQLPNRHDFHMNILDTRRNDSGIYLCGAISLHPKAKIEESPGAELVVTERILETSTRYPS
# Chain of UniProt O15392 (whole entry, looked up): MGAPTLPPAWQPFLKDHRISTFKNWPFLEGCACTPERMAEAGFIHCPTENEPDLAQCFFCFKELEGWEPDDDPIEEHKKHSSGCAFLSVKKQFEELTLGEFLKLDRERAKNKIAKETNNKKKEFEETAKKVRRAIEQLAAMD
# Chain of UniProt O60462 (whole entry, looked up): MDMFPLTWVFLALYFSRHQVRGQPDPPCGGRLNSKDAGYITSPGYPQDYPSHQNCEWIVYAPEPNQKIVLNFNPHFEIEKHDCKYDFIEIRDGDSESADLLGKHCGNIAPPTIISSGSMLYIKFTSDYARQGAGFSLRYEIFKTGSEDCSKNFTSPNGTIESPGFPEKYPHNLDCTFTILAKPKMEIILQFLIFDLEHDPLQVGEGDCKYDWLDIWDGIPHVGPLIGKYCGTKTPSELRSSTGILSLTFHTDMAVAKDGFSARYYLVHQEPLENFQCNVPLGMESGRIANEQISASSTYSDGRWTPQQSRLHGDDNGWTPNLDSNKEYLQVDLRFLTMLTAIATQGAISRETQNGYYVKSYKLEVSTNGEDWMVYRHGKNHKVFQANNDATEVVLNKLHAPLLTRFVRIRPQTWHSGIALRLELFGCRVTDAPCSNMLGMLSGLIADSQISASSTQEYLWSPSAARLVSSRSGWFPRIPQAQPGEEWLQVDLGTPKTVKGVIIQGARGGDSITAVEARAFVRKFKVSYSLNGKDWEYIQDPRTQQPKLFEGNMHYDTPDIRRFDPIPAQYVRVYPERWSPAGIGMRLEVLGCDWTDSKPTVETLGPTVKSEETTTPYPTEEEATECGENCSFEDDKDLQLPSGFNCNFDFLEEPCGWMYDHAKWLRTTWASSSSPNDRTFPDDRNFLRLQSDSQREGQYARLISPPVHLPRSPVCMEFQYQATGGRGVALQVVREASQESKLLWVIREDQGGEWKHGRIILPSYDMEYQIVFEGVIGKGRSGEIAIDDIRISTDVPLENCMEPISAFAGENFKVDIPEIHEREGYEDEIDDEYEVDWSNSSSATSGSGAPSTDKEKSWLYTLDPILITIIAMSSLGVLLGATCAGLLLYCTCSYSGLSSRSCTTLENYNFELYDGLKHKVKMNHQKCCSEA
# Chain of UniProt Q9HD67 (whole entry, unmodified, looked up): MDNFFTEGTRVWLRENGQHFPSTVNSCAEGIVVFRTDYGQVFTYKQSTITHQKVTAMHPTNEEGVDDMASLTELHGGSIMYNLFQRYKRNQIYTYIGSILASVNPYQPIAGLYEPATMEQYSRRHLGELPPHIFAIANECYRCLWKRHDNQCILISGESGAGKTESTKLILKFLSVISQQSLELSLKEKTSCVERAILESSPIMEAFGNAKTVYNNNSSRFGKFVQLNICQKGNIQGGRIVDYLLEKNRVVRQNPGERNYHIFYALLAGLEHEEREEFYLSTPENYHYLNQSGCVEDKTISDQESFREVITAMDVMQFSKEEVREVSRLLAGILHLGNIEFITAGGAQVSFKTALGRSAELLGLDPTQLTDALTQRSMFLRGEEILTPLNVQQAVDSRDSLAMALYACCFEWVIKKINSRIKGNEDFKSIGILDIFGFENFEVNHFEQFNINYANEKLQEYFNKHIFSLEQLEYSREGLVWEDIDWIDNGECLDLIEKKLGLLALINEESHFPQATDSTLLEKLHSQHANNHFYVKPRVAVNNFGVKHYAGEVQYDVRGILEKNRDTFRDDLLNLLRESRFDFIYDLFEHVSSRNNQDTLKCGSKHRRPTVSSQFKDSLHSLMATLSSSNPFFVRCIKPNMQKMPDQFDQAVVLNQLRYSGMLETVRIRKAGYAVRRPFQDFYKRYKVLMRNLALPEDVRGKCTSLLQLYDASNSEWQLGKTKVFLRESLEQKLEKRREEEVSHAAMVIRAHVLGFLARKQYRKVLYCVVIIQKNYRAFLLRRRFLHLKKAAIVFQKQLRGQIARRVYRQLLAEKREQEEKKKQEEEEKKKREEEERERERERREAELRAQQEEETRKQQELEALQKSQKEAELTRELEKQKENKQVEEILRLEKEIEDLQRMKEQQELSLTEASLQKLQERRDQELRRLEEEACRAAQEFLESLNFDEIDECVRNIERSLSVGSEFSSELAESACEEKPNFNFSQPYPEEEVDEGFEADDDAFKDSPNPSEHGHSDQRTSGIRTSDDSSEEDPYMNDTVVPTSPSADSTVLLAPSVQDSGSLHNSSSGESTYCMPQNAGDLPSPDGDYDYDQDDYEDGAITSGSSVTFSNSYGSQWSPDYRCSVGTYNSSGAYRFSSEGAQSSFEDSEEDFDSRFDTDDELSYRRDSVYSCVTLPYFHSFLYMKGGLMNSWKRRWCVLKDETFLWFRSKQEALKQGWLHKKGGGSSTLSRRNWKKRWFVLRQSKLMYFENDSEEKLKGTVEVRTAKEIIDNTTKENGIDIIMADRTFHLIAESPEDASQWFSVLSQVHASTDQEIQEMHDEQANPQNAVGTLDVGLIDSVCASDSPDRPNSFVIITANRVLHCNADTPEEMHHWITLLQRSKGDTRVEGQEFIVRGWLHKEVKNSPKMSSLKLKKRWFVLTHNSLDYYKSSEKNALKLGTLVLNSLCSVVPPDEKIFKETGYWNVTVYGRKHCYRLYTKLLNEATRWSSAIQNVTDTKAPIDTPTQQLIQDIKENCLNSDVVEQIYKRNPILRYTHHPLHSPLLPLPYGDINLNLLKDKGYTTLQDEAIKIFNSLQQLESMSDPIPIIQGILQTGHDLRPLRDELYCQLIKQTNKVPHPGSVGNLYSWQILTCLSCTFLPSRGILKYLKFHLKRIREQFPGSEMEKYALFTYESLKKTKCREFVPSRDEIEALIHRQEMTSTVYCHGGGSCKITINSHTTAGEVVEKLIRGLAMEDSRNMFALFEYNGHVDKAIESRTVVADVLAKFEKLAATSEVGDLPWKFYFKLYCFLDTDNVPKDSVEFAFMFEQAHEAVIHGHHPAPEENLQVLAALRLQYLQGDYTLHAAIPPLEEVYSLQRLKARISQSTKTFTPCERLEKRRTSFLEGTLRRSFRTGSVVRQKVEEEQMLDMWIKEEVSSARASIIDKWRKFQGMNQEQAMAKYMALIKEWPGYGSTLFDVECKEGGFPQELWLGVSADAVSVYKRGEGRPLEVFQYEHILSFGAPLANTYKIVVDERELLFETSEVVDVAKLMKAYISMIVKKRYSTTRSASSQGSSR
# Chain of UniProt Q99828 (whole entry, looked up): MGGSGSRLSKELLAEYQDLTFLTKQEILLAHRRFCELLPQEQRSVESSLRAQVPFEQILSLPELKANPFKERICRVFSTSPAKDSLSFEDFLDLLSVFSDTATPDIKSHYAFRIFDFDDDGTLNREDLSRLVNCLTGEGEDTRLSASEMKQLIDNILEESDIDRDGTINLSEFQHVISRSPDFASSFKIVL
# Chain of UniProt Q18179 (whole entry, looked up): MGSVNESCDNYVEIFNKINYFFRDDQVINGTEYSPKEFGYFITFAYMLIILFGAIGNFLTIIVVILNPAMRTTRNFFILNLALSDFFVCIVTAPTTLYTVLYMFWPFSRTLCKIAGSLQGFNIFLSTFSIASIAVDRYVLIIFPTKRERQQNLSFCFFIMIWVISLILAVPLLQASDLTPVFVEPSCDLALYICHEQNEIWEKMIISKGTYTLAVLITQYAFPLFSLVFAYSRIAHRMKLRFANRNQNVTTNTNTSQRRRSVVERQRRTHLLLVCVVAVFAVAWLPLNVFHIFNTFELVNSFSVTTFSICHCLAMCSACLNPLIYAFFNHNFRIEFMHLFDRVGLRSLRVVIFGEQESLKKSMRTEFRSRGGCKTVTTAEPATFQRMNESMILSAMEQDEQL
# Chain of UniProt P11309 (whole entry, looked up): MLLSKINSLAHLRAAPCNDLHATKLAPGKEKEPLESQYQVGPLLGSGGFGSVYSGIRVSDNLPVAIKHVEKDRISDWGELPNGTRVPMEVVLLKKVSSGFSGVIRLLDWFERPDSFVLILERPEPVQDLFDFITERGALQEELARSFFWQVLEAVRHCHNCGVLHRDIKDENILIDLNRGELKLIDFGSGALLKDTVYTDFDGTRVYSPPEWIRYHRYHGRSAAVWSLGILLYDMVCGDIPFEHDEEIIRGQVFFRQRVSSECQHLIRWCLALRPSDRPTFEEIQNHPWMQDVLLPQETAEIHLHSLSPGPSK
Molecule,tested on,assay,test system,setting,measurement,result
melittin,,isothermal titration calorimetry,POPC/POPG LUVs 50:50%,"100 µM, pH 7.0, 60 °C",partitioning enthalpy,-25 kcal/mol
TATCAACACTCTTTTCTTTTATGATATTTAATAGTTATTGCAAATTCATTGCTAACTTTCTTAACACGTTTTATAATAAACGGAGAGTTATCCGTTTGTCAATTTTAGAGAATTTTAAGTAGGTGTAATCATGCGAAAAGATGCAAAAGA (dsDNA),"gbaA 1-185 C104S (Staphylococcus aureus COL, UniProt Q5HCX3)",EMSA,"double-stranded DNA, one strand shown",,Kd,0.0158 µM
"RmS-17, glycosylated (Rhipicephalus microplus)",PLG plasmin (Homo sapiens),"chromogenic substrate hydrolysis, inhibitor",,1 µM,protease inhibition,58.4%
"MENVKAATATTTWMVPTAQ (L3MBTL3 52-70 K57A (Homo sapiens, UniProt Q96JM7-2); sequence looked up)",Rbpj,ITC,peptide,"pH 6.5, 25 °C, NaCl 150 mM, one site model",Kd,5.3 µM
KRRQVSITGFFHSKR-NH2 (CDKN1A/POLD3 (Homo sapiens); C-terminal amide),PCNA,SPR,peptide,,Kd,0.124 µM
MWPHRVTAAK (peptide; fluorescein),"MAP1LC3B (Homo sapiens, UniProt Q9GZQ8)",fluorescence polarisation,peptide,,Kd,1.25 ± 0.453 µM
B1 (PDCD1 residues 25-157 C83S),CD274 ectodomain (Homo sapiens),SPR,,"pH 7.5, 25 °C, NaCl 150 mM",Kd,3.2 ± 0.3 µM
CNSRQTDREDELI,,,"peptide, human polyclonal IgM RF SOR","concentration not given, 5 µg/mL mAb II-481 coated, together with: RF at 50% max binding concentration",inhibition,0%
"MENVKKATAATTWMVPTAQ (L3MBTL3 52-70 T61A (Homo sapiens, UniProt Q96JM7-2); sequence looked up)",Rbpj,ITC,peptide,"pH 6.5, 25 °C, NaCl 150 mM, one site model",Kd,1.7 µM
"{FITC}-GFID[pS]D[pT]DVEEE-NH2 (peptide; N-terminal FITC, pS5, pT7, C-terminal amide; FITC = O=C1OC2(c3ccc(O)cc3Oc3cc(O)ccc32)c2ccc(NC(=S)*)cc21; pS = N[C@@H](COP(=O)(O)O)C(=O)O; pT = C[C@@H](OP(=O)(O)O)[C@H](N)C(=O)O)","Topbp1 553-749 (Mus musculus, UniProt Q6ZQF0)",fluorescence polarisation,peptide,"pH 7.5, NaCl 150 mM",Kd,170 ± 20 µM
"KRRQTSMTDFFHSKR-NH2 (CDKN1A 141-155 Y151F (Homo sapiens, UniProt P38936); C-terminal amide)",PCNA,SPR,peptide,,Kd,0.0106 µM
"MENVKKATATTTWMVPTAQ (L3MBTL3 52-70 (Homo sapiens, UniProt Q96JM7-2); sequence looked up)",Rbpj,ITC,peptide,"pH 6.5, 25 °C, NaCl 150 mM, one site model",Kd,0.92 µM
"LVQKYCELHPLKPGCG (designed peptide; N-terminal bipyridyl thioether macrocycle, C-terminal amide)",BRD4 fragment (Homo sapiens),SPR,peptide,,Kd,0.0051 µM
EDGGSFAYGAMKALYG (designed peptide W2A),"CIB1 (Homo sapiens, UniProt Q99828)",ITC,peptide,"25 °C, together with: CaCl2 0.1 mM",Kd,3.91 µM
"KRRQTSWTDFYHSKR-NH2 (CDKN1A 141-155 M147W (Homo sapiens, UniProt P38936); C-terminal amide)",PCNA,SPR,peptide,,Kd,3.57 µM
AR[pT]KQTARKSTG (H3C1 1-12; pT3; pT = C[C@@H](OP(=O)(O)O)[C@H](N)C(=O)O),"BIRC5 1-142 (Homo sapiens, UniProt O15392)",ITC,peptide,"pH 7.2, 25 °C",Kd,2.31 ± 0.08 µM
KRHRK(Me3)VLRD (histone H4 residues 16-24; K20me3; Me3 = trimethylated (lysine)),"Tp53bp1 1463-1617 (Mus musculus, UniProt P70399)",NMR titration,peptide,,Kd,1700 ± 800 µM
"ARSPLLPVSVPTAPEVSEESHKPTEDSANVYEQDDLSEQMASLEGLMKQLNAITGSAF (DCC 1390-1447 (Homo sapiens, UniProt P43146); sequence looked up)","MYO10 MyTH4-FERM 1486-2058 del1872-1891 (Homo sapiens, UniProt Q9HD67)",ITC,peptide,,Kd,0.53 ± 0.06 µM
MPIFLDHILNKFLILHYA (SPAM peptide parental),CD274 extracellular domain (Homo sapiens),BLI,peptide,,Kd,0.0382 µM
"AR[pT][Lys(Me)]QTARKSTG (histone H3 2-13 (UniProt P68431); pT3, K4me1; pT = C[C@@H](OP(=O)(O)O)[C@H](N)C(=O)O; Lys(Me) = CNCCCC[C@H](N)C(=O)O; sequence looked up)","BIRC5 1-142 (Homo sapiens, UniProt O15392)",ITC,peptide,pH 7.2,Kd,3.1 ± 0.14 µM
NSRQTDR,,,"peptide, human polyclonal IgM RF SOR","concentration not given, 5 µg/mL mAb II-481 coated, together with: RF at 50% max binding concentration",inhibition,0%
RRRRRRRRKKPGLRRRQT (CDKN1B 189-198 (Homo sapiens)),"PIM1 (Homo sapiens, UniProt P11309)",SPR,peptide,,Kd,0.323 µM
"MENVKKATATTTWAVPTAQ (L3MBTL3 52-70 M65A (Homo sapiens, UniProt Q96JM7-2); sequence looked up)",Rbpj,ITC,peptide,"pH 6.5, 25 °C, NaCl 150 mM, one site model",Kd,1 µM
"RmS-3, glycosylated (Rhipicephalus microplus)",trypsin (Bos taurus),"chromogenic substrate hydrolysis, inhibitor",,1 µM,protease inhibition,< 20%
{FITC}-GLIHQYCQGYWRHVPPSPREAPGAPRSPEPQDQKKPRNRR (SEMA3F 740-779 (Homo sapiens); not fully specified; N-terminal FITC; FITC = O=C1OC2(c3ccc(O)cc3Oc3cc(O)ccc32)c2ccc(NC(=S)*)cc21),"NRP2 277-592 (Homo sapiens, UniProt O60462)",fluorescence polarisation,peptide,"1.8 µM, pH 7.5, 23 °C, NaCl 100 mM, single site model",Kd,4.1 ± 0.5 µM
{TAMRA}-ADISTFASAINNAGRLRY-NH2 (flp-34 FLP-34-1 (Caenorhabditis elegans); N-terminal TAMRA; C-terminal amide; TAMRA = 5(6)-carboxytetramethylrhodamine),"npr-11 (Caenorhabditis elegans, UniProt Q18179)",NanoBRET saturation binding,"peptide, HEK293, membranes","pH 7.4, room temperature",Kd,0.388 µM
"PATPTASSSSSTTPT (TP53BP1 1636-1650 (Homo sapiens, UniProt Q12888); sequence looked up)","SPOP 28-164 S119D (Homo sapiens, UniProt O43791)",ITC,peptide,"10 °C, NaCl 100 mM, one-site model",Kd,42.5 ± 4.4 µM
AR[pT]KQTARKSTGGKA (histone H3 2-16 (UniProt P68431); pT3; pT = C[C@@H](OP(=O)(O)O)[C@H](N)C(=O)O; sequence looked up),"BIRC5 (Homo sapiens, UniProt O15392)",ITC,peptide,"pH 7.5, 25 °C, NaCl 100 mM",Kd,4.8 ± 1.13 µM
"MENVKKATATTTWMVPTRQ (L3MBTL3 52-70 A69R (Homo sapiens, UniProt Q96JM7-2); sequence looked up)",Rbpj,ITC,peptide,"pH 6.5, 25 °C, NaCl 150 mM, one site model",Kd,1.63 µM
KRRKHTLDIFFHSKR-NH2 (CDKN1A/POLK p21 peptide with POLK PIP-box (Homo sapiens); C-terminal amide),PCNA,SPR,peptide,,Kd,3.3 µM

# For quick reference, copied from above:
Molecule,tested on,assay,test system,setting,measurement,result
"KRRQTSWTDFYHSKR-NH2 (CDKN1A 141-155 M147W (Homo sapiens, UniProt P38936); C-terminal amide)",PCNA,SPR,peptide,,Kd,3.57 µM
AR[pT]KQTARKSTG (H3C1 1-12; pT3; pT = C[C@@H](OP(=O)(O)O)[C@H](N)C(=O)O),"BIRC5 1-142 (Homo sapiens, UniProt O15392)",ITC,peptide,"pH 7.2, 25 °C",Kd,2.31 ± 0.08 µM
KRHRK(Me3)VLRD (histone H4 residues 16-24; K20me3; Me3 = trimethylated (lysine)),"Tp53bp1 1463-1617 (Mus musculus, UniProt P70399)",NMR titration,peptide,,Kd,1700 ± 800 µM
